Results pooled from the literature.
Parts stem from different laboratories: compare values within a part only. Positions count from the first letter of the parent shown.

Block 1
Target: CCND1, cyclin fold, Cln2 fusion (human)
Technique: yeast growth competition, sequencing
Sample: yeast
Setting: strong parent motif
Baseline: not given
Direction: higher = stronger binding
Endpoint: normalised enrichment score
Parent: CDKN1A docking peptide (human); SKACRRLFGPVDS; partner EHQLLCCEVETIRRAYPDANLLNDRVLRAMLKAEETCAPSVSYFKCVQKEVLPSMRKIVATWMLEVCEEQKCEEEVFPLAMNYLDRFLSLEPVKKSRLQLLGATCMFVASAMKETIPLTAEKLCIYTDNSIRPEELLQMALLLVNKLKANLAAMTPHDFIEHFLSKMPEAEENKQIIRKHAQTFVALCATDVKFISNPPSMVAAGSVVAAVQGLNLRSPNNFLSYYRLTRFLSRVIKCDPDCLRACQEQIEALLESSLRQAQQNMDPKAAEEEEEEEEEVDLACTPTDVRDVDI
G9F: 5.14
L7W: 0.515
R5A: 0.205
F8A: -0.167
C4Y: -0.126
L7H: 0.0947
R6L: 1.66
G9R: 0.846
R6V: 4.03
C4T: 0.929
R6E: 2.47
L7D: 0.0773
L7A: -0.281
D12W: 1.12
L7G: -0.149
V11M: 2.83
C4L: 0.608
L7N: 0.0374
V11Y: 3.16
P10K: 1.18
V11P: 3.15
R5T: 0.48
A3W: 0.742
L7Y: 0.334
D12H: 1.54

Block 2
Target: Ras GTPase-activating protein-binding protein 1, full length (G3BP1, Homo sapiens, UniProt Q13283)
Sequence of UniProt Q13283 (whole entry, looked up): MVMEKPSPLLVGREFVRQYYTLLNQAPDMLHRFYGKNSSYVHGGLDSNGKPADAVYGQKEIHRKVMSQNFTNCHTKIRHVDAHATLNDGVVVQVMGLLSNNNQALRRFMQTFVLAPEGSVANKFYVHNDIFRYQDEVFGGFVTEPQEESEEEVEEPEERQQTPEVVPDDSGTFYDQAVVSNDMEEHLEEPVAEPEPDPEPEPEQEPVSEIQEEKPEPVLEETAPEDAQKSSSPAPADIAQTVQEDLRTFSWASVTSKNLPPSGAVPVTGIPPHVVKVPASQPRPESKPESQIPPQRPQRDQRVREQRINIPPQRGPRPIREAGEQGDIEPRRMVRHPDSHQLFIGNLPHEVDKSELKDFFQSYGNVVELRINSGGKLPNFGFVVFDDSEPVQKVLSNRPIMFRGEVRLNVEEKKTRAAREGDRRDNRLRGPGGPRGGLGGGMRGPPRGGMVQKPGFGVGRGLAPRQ
Technique: RNA Bind-n-Seq
Form: RNA
Sample: in vitro
Concentration: 200 nM
Setting: whole 134-nt RNA, ends assumed
With: 150 mM LiCl
Baseline: input library
Direction: higher = stronger binding
Endpoint: log2 enrichment
Each molecule: 7-deaza-guanosine replaces G
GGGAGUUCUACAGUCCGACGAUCGCAGGAAGUAAAAACAAAUGGAAAUGCUUCGGAUAGUGGCAGGGGUGGGGGUUGCUAAGGAAAGGGUGGGAUGGGAGUGGGUAACGAGUUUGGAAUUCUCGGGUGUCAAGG: 0.362
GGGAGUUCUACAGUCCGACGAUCAGUCCUGUGCUACACAUCGUAUGUACCGAAUCGGGAAAAAGGGAGGGUUUUUUUGGGAAAGUAUUAUGUUACGCCGUUCGGAUCUGCACUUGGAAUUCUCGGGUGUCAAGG: -1.19
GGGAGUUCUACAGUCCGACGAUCUCAAGUCCUGUGCUACACAUCGUAUGUACCGAAUCGGAAAAAGGAAAGGUUUGGAAAGUAUUAUGUUACGCCGUUCGGAUCUGCACUUCCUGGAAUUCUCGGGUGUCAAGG: -1.08
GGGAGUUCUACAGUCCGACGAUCUCCUGUGCUACACAUCGUAUGUACCGAAUCGGUUUUUUUGGAAAAAAAGGUUUUUUUGGAAAGUAUUAUGUUACGCCGUUCGGAUCUGCAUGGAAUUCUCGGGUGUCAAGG: -2.3
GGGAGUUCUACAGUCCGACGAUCAAGUCCUGUGCUACACAUCGUAUGUACCGAAUCGGGUUUUUGGGUGGGUUUUUGGGAAAGUAUUAUGUUACGCCGUUCGGAUCUGCACUUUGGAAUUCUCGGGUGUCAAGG: -0.783
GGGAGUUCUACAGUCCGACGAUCUCAAGUCCUGUGCUACACAUCGUAUGUACCGAAUCGGGUGGGUGGGAAAAAGGGAAAGUAUUAUGUUACGCCGUUCGGAUCUGCACUUCCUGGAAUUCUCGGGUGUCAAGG: -0.544
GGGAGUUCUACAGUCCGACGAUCCUCAAGUCCUGUGCUACACAUCGUAUGUACCGAAUCGGGAAAGGGUGGGUGGGAAAGUAUUAUGUUACGCCGUUCGGAUCUGCACUUCCAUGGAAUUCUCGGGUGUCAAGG: 0.151
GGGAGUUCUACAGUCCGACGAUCUCCUGUGCUACACAUCGUAUGUACCGAAUCGGGGUUUUUUUGGGGAAAAAGGGGUGGGGAAAGUAUUAUGUUACGCCGUUCGGAUCUGCAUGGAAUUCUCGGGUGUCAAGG: -0.0463
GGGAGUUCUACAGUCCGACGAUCCCUGUGCUACACAUCGUAUGUACCGAAUCGGGAAAAAAAGGGUUUUUGGGAAAAAAAGGGAAAGUAUUAUGUUACGCCGUUCGGAUCUGCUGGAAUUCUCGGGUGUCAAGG: -0.865
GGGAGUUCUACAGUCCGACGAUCUAACUUUAGAGGAGGAUCUGAUGGAUAUGGCAGUGGACGUGGAUUUGGGGAUGGCUAUAAUGGGUAUGGAGGAGGACCUGGAGGUGGCAAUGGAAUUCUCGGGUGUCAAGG: -1.02
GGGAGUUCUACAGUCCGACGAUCGUCCUGUGCUACACAUCGUAUGUACCGAAUCGGUUUUUUUGGUUUUUGGUUUUUUUGGAAAGUAUUAUGUUACGCCGUUCGGAUCUGCACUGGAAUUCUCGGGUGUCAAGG: -1.41

Block 3
Target: ABI1, truncated, D143A, DHFR fusion (Arabidopsis thaliana)
Technique: DHFR PCA, deep sequencing
Sample: yeast
Setting: methotrexate growth selection, single substitutions
With: (+)-ABA 0.39 µM
Baseline: wild-type fitted maximum
Direction: higher = stronger binding
Endpoint: relative binding score
Parent: PYL1, truncated, DHFR fusion (Arabidopsis thaliana); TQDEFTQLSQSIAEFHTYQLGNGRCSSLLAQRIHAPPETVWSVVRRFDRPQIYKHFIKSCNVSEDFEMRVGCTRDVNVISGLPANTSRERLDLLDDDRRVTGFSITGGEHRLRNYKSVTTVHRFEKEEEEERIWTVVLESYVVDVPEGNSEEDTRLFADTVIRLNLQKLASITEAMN; partner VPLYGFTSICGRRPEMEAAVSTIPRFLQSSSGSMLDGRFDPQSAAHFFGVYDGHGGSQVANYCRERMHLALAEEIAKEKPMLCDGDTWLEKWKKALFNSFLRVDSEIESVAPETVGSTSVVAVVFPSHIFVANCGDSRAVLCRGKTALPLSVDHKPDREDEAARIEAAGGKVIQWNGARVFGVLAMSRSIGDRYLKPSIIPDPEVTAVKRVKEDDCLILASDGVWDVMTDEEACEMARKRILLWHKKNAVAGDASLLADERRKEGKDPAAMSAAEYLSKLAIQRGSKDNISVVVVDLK
N22I: 40.4%
I133F: 21%
V78F: 104%
C25S: 1.93%
T6F: 25.7%
C25A: 39.5%
G108T: -2.01%
G107H: 12.7%
Y53S: -10.1%
N85C: 60.6%
S63N: 35.7%

Block 4
Target: Sal-like protein 4, full length isoform B (SALL4, Homo sapiens, UniProt Q9UJQ4-2, residues 1-616)
Technique: universal PBM
Form: double-stranded DNA, one strand shown
Sample: in vitro
Concentration: not given
Setting: 8-mer, flanks averaged, mean of replicates
Direction: higher = stronger binding
Endpoint: E-score
Residues (chain): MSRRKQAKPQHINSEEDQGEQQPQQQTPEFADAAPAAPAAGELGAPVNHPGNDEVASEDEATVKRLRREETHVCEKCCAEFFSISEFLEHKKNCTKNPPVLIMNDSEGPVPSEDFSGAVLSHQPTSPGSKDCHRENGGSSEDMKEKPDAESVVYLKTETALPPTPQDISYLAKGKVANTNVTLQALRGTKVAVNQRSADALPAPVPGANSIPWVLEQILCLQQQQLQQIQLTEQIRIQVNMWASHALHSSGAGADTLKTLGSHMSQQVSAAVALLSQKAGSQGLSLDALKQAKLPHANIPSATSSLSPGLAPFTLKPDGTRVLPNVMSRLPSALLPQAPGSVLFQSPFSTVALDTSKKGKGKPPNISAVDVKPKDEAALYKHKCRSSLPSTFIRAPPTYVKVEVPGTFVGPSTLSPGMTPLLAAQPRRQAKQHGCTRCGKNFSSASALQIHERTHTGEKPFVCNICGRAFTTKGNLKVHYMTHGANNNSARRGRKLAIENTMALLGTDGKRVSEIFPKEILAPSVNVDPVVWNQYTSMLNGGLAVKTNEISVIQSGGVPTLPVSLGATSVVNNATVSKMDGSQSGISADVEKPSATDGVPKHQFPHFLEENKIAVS
CAGTGAGA: -0.0845
AATTTGGC: 0.0588
TCGGCACA: -0.144
CAGCCTAG: -0.0837
CGCCTAAC: -0.155
AGAATCTA: 0.0943
AGTAGGTA: 0.145
ATCTAAAG: 0.108
ACACTTTG: 0.171
CCGATCCA: -0.0958
ACGGTGGC: -0.228
CCTAGTAC: 0.0318
ACATCTTA: 0.0988
ACAGTCAA: -0.0151
GAATTTGA: 0.0823
AGTGTCTG: 0.00234
GGTCCGGA: -0.249
AGTGATTA: 0.205
CCGTATAG: 0.0595
AACGACTA: 0.158
GGAATACA: 0.16
AGCTTTAG: 0.0218
CTACGTTA: 0.142
ATACAAAT: 0.332
CTACCAAA: 0.146
